Experimental data pooled from the literature.
A part holds a random share of what one study measured.

Series 1 — method: protein-binding microarray; molecule type: double-stranded DNA, one strand shown; medium: in vitro; tested at: 250 nM; setting: 60-bp whole probe; together with: salmon DNA 0.4 mg/ml; baseline: random background probes; reading: higher = stronger binding
Target: Interferon regulatory factor 5, full length, phosphomimetic (IRF5, Homo sapiens, UniProt Q13568-2, residues 1-514, K96S/S451D/S453D/S456D/S462D)
Constant ends, left off below: GCCTAGCAC … GTGCTAGGTCTTGATTCGCTTGACGCTGCTG
Oligonucleotide	log fluorescence [z-score]
TATTTTTTCTGAACCATTTT	1.24
TCATTTTTTTCTTTAAAACT	1.31
TTAGATCTCAGTACCGATTA	0.325
GACGCTTTCAGACTGGAGAC	0.76
TTGCCTTTTGCTTTACTGAT	1.4
TCATTTTTATTTTCTGAACT	2.17

Series 2 — method: protein binding microarray; molecule type: double-stranded DNA, one strand shown; medium: in vitro; tested at: not given; baseline: not given; reading: higher = stronger binding
Target: Histone acetyltransferase KAT6A, winged helix 2, GST fusion (KAT6A, Homo sapiens, UniProt Q92794, residues 85-181)
Setting: 8-mer, flanks averaged, mean of 2 arrays, mostly near background
Residues (chain): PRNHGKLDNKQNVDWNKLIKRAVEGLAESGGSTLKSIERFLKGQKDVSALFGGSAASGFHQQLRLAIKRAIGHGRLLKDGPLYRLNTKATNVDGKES
Oligonucleotide	E-score
CACGGTAC	-0.00613
GTCTACCA	-0.211
CAGAAAAG	0.0245
CTGCCAGC	0.181
ACAGGTAT	-0.135
GGTGGAAA	-0.0769

Series 3 — method: protein-binding microarray; molecule type: double-stranded DNA, one strand shown; medium: in vitro; tested at: 0.8 µM; setting: whole 60-bp probe, no competitor; reading: higher = stronger binding; constant ends, left off below: … GTCTTGATTCGCTTGACGCTGCTG
Target: Centromere-binding protein 1, full length, N-terminal tag (CBF1, Saccharomyces cerevisiae, UniProt P17106, residues 1-351)
Sequence of UniProt P17106 (whole entry, looked up): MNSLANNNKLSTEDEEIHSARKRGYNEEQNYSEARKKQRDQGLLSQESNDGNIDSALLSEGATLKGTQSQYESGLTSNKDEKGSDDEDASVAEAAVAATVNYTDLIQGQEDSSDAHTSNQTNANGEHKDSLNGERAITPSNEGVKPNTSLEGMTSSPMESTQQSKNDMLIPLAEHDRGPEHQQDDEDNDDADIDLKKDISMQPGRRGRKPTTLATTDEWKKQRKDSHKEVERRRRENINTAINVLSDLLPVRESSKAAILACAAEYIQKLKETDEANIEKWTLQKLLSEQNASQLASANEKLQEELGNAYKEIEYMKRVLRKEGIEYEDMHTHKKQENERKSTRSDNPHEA
Oligonucleotide	fluorescence intensity [a.u.]
CTATATATTTTGTTACGCGTGCATTTTCTTGTTTTC	609
TGTACGAAGCTATATCACGTCAATATAGTAGTTAGG	542
CTAGTCTTACCCCGCCACGCGTTAATAGTGAGATTC	493
CTATAAAGATGAACAGGTGAGACAATATCAAAGTTC	675
CTAGTCGTTGCGGGCGTGGTGCTGATGTTCTTCTTC	549
GAAGAACCGACGATCCTCGTGAGGCTTGCTTGGTAG	527

Single results of other studies
Molecule	target	test	test system	conditions	scale	measurement	result
PhoQ, residues 284 288 289 292 302 303 SLGVVW	PhoP, residues 12 14 15 18 19 STWGI (Escherichia coli, UniProt P23836)	Sort-seq, refers to: YFP reporter	E. coli	PhoQ-PhoP variant library, together with: 10 µM Mg2+	baseline: high Mg2+ state, higher = stronger signaling	fold induction	9.3

A few entries again (series 1):
Oligonucleotide	log fluorescence [z-score]
TTAGATCTCAGTACCGATTA	0.325
GACGCTTTCAGACTGGAGAC	0.76
TTGCCTTTTGCTTTACTGAT	1.4
